Measured values from different studies.
Several values in a cell are separate wells, animals, samples, runs or records. Numbers after ± are the reported error.

| Compound | assay | system | conditions | measurement | result |
| --- | --- | --- | --- | --- | --- |
| Cc1cc(-c2ccc(NC(=O)CC[C@H](NC(=O)CN3CCN(CC(=O)O)CCN(CC(=O)O)CCN(CC(=O)O)CC3)C(=O)NCC(=O)N[C@@H](CC(N)=O)C(=O)N[C@H](C(=O)N[C@H](C(=O)N[C@@H](CCCNC(=N)N)C(=O)N[C@@H](CCC(N)=O)C(=O)O)C(C)C)C(C)C)c(C)c2)ccc1/N=N/c1ccc2c(S(=O)(=O)O)cc(S(=O)(=O)O)c(N)c2c1O [copper-64 labelled] |  | nude mouse, 143B xenograft, tumour | intravenous, 8 h | tissue uptake | 6.5 ± 0.88 %ID/g |
| C[C@@H](O)[C@@H]1NC(=O)[C@H](CCCCN)NC(=O)[C@@H](Cc2c[nH]c3ccccc23)NC(=O)[C@H](Cc2ccc(O)cc2)NC(=O)[C@@H](NC(=O)[C@@H](Cc2ccccc2)NC(=O)CN2CCN(CC(=O)O)CCN(CC(=O)O)CCN(CC(=O)O)CC2)CSSC[C@@H](C(=O)N[C@H](CO)[C@@H](C)O)NC1=O [gallium-67 labelled] | gamma counting | ICR mice, male, kidney | iv, 11 kBq/mouse, 1 h | tissue uptake | 8.15 ± 2.43 %ID/g |
| CC(C)C[C@H](NC(=O)[C@@H](CCCCNC(=O)[C@@H](Cc1ccccc1)NC(=O)CCCCCNC(=O)CN1CCN(CC(=O)O)CCN(CC(=O)O)CCN(CC(=O)O)CC1)NC(=O)[C@H](Cc1ccc(O)cc1)NC(=O)[C@H](CO)NC(=O)[C@H](Cc1c[nH]c2ccccc12)NC(=O)[C@H](Cc1c[nH]cn1)NC(=O)[C@@H]1CCC(=O)N1)C(=O)N[C@@H](CCCNC(=N)N)C(=O)N1CCC[C@H]1C(=O)NCC(N)=O [indium-111 labelled] |  | athymic nude mouse, female, intestines | intravenous, 0.037 MBq, 0.5 h | tissue uptake | 2.81 ± 1.42 %ID |
| CCCC[C@H](NC(=O)COCCOCCNC(=O)CN1CCN(CC(=O)O)CCN(CC(=O)O)CC1)C(=O)N[C@H]1CC(=O)NCCCC[C@@H](C(N)=O)NC(=O)[C@H](Cc2c[nH]c3ccccc23)NC(=O)[C@H](CCCNC(=N)N)NC(=O)[C@@H](Cc2ccccc2)NC(=O)[C@H](Cc2c[nH]cn2)NC1=O [technetium-99m labelled] |  | C57 mouse, kidneys | intravenous, 0.037 MBq, 2 h | tissue uptake | < 1.8 %ID/g |
| C[C@@H](O)[C@@H]1NC(=O)[C@H](CCCCN)NC(=O)[C@@H](Cc2c[nH]c3ccccc23)NC(=O)[C@H](Cc2ccc(O)cc2)NC(=O)[C@@H](NC(=O)[C@@H](Cc2ccccc2)NC(=O)CN2CCN(CC(=O)O)CCN(C(=O)CCNC(=O)c3ncn4c(=O)n(C)nnc34)CCN(CC(=O)O)CC2)CSSC[C@@H](C(=O)N[C@H](CO)[C@@H](C)O)NC1=O [gallium-68 labelled] | ex vivo gamma counting | mouse, HCT116-WT/SSTR2 xenografts, blood | intravenous, 2 nmol, 1 h | tissue uptake | 0.35 ± 0.15 %ID/g |
| CCCC[C@H](NC(=O)CCCCCCCNC(=O)CN1CCN(CC(=O)O)CCN(CC(=O)O)CC1)C(=O)N[C@H]1CC(=O)NCCCC[C@@H](C(N)=O)NC(=O)[C@H](Cc2c[nH]c3ccccc23)NC(=O)[C@H](CCCNC(=N)N)NC(=O)[C@@H](Cc2ccccc2)NC(=O)[C@H](Cc2c[nH]cn2)NC1=O [technetium-99m labelled] |  | C57 mouse, heart | intravenous, 0.037 MBq, 0.5 h | tissue uptake | 0.81 ± 0.19 %ID/g |
| CC(C)C[C@H](NC(=O)[C@@H](CCCCNC(=O)CCCCCCCCCCNC(=O)CN1CCN(CC(=O)O)CCN(CC(=O)O)CCN(CC(=O)O)CC1)NC(=O)[C@H](Cc1ccc(O)cc1)NC(=O)[C@H](CO)NC(=O)[C@H](Cc1c[nH]c2ccccc12)NC(=O)[C@H](Cc1cnc[nH]1)NC(=O)[C@@H]1CCC(=O)N1)C(=O)N[C@@H](CCCN=C(N)N)C(=O)N1CCC[C@H]1C(=O)NCC(N)=O [indium-111 labelled] |  | athymic nude mouse, female, intestines | intravenous, 0.037 MBq, 4 h | tissue uptake | 2.07 ± 0.18 %ID |
| C=C1CC[C@H](OCCCNC(=O)CCOCCOCCOCCOCCOCCOCCOCCOCCOCCOCCOCCOCCOCCOCCOCCOCCOCCOCCOCCOCCOCCOCCOCCOCCOCCOCCOCCOCCOCCOCCOCCOCCOCCOCCOCCOCCNC(=O)CCN2C(=O)CC(SC[C@H](NC(=O)[C@H](Cc3ccccc3)NC(=O)[C@H](CC(N)=O)NC(=O)[C@H](Cc3c[nH]cn3)NC(=O)[C@@H](NC(=O)[C@H](CC(=O)O)NC(=O)[C@H](CCC(N)=O)NC(=O)[C@H](CC(C)C)NC(=O)[C@H](CCCCN)NC(=O)[C@H](CCCCN)NC(=O)[C@H](CCCNC(=N)N)NC(=O)[C@H](CC(C)C)NC(=O)[C@H](Cc3c[nH]c4ccccc34)NC(=O)[C@H](CCC(=O)O)NC(=O)[C@@H](NC(=O)[C@H](CCCNC(=N)N)NC(=O)[C@H](CCC(=O)O)NC(=O)[C@H](CCSC)NC(=O)[C@H](CO)NC(=O)[C@H](CC(N)=O)NC(=O)[C@H](CC(C)C)NC(=O)[C@H](Cc3c[nH]cn3)NC(=O)[C@H](CCCCN)NC(=O)CNC(=O)[C@H](CC(C)C)NC(=O)[C@H](CC(N)=O)NC(=O)[C@H](Cc3c[nH]cn3)NC(=O)[C@H](CCSC)NC(=O)[C@H](CC(C)C)NC(=O)[C@H](CCC(N)=O)NC(=O)[C@@H](NC(=O)[C@H](CCC(=O)O)NC(=O)[C@H](CO)NC(=O)[C@@H](NC(=O)[C@@H](N)CO)C(C)C)[C@@H](C)CC)C(C)C)C(C)C)C(=O)O)C2=O)C/C1=C/C=C1\CCC[C@]2(C)[C@@H]([C@H](C)CCCC(C)(C)O)CC[C@@H]12 (stereo partly drawn) |  | male cynomolgus monkey, plasma | intravenous, 0.02 mg/kg, single dose | half-life | 32.3 h |
| CC(C)C[C@H](NC(=O)[C@H](Cc1ccc(O)cc1)NC(=O)[C@@H](CCCNC(=N)N)NC(=O)[C@@H](CO)NC(=O)[C@H](Cc1ccccc1)NC(=O)[C@H](CC1CCCCC1)NC(=O)[C@H](CC(=O)O)NC(=O)CN1CCN(CC(=O)O)CCN(CC(=O)O)CCN(CC(=O)O)CC1)C(=O)N[C@@H](Cc1c[nH]c2ccccc12)C(=O)N[C@@H](CO)C(=O)O [copper-64 labelled] |  | human, urinary bladder | concentration not given, 24 h | activity concentration | 231 Bq/mL and 316 Bq/mL and 34.5 Bq/mL and 198 Bq/mL and 55.5 Bq/mL and 45.1 Bq/mL |

A few entries again:
| Compound | assay | system | conditions | measurement | result |
| --- | --- | --- | --- | --- | --- |
| C[C@@H](O)[C@@H]1NC(=O)[C@H](CCCCN)NC(=O)[C@@H](Cc2c[nH]c3ccccc23)NC(=O)[C@H](Cc2ccc(O)cc2)NC(=O)[C@@H](NC(=O)[C@@H](Cc2ccccc2)NC(=O)CN2CCN(CC(=O)O)CCN(CC(=O)O)CCN(CC(=O)O)CC2)CSSC[C@@H](C(=O)N[C@H](CO)[C@@H](C)O)NC1=O [gallium-67 labelled] | gamma counting | ICR mice, male, kidney | iv, 11 kBq/mouse, 1 h | tissue uptake | 8.15 ± 2.43 %ID/g |
